Results gathered from unrelated publications.
Parts stem from different laboratories: compare values within a part only.
Sequence of UniProt O94768 (whole entry, looked up): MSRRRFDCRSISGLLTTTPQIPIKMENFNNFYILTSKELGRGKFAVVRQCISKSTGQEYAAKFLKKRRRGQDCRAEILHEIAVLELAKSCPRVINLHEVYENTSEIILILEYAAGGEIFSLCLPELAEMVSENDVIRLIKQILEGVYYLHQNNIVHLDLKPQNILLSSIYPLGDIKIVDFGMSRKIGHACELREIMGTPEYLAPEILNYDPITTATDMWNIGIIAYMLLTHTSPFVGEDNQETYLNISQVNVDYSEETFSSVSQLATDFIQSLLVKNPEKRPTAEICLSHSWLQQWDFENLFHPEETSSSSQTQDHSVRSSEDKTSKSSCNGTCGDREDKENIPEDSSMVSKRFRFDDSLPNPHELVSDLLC
Sequence of UniProt Q6P2M8 (whole entry, looked up): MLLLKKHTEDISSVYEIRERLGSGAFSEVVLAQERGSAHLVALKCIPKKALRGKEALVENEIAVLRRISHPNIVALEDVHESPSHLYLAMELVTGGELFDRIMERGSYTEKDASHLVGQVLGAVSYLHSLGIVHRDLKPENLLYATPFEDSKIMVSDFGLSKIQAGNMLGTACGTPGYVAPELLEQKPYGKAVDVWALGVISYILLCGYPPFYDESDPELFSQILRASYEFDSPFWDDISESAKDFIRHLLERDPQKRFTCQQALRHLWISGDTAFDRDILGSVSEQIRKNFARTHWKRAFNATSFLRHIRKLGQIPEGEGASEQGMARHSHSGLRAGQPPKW
Sequence of UniProt Q9UBE8 (whole entry, looked up): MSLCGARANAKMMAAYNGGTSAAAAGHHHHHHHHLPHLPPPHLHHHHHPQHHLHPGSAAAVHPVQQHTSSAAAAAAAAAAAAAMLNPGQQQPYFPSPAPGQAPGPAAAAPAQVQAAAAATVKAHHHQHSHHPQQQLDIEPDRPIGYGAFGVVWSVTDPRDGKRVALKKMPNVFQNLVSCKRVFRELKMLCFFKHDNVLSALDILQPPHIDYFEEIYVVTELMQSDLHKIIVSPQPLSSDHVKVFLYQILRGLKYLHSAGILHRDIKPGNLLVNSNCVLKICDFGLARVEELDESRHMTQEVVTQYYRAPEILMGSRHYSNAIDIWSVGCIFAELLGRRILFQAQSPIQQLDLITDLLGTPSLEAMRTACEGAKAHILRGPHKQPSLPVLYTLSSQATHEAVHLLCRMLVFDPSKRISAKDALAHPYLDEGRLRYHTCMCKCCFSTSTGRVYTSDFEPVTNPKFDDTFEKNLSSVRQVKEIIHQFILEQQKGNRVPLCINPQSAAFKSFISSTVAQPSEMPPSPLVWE
Sequence of UniProt Q06418 (whole entry, looked up): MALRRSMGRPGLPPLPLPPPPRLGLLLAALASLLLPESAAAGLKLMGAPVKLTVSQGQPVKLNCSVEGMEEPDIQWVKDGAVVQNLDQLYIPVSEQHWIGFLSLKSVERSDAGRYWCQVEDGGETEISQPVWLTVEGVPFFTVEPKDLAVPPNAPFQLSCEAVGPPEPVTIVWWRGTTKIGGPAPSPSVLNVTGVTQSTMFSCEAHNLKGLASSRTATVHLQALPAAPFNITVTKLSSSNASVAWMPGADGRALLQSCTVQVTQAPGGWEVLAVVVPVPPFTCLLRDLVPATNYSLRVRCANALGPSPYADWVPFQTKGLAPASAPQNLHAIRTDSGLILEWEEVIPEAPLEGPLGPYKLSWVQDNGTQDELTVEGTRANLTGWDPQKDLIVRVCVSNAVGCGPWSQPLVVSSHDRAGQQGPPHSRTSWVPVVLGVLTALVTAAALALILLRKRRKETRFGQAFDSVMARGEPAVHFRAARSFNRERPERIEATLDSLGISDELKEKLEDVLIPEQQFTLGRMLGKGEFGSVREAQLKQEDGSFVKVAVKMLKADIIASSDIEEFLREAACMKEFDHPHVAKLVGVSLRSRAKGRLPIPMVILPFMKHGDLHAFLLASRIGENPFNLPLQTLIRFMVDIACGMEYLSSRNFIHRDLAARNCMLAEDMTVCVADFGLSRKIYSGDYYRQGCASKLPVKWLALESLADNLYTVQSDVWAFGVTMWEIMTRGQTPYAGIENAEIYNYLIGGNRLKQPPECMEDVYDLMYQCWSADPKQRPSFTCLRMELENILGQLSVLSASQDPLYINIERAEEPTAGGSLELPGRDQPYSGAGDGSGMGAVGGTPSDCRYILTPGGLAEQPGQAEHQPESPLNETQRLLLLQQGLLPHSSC
Sequence of UniProt P25098 (whole entry, looked up): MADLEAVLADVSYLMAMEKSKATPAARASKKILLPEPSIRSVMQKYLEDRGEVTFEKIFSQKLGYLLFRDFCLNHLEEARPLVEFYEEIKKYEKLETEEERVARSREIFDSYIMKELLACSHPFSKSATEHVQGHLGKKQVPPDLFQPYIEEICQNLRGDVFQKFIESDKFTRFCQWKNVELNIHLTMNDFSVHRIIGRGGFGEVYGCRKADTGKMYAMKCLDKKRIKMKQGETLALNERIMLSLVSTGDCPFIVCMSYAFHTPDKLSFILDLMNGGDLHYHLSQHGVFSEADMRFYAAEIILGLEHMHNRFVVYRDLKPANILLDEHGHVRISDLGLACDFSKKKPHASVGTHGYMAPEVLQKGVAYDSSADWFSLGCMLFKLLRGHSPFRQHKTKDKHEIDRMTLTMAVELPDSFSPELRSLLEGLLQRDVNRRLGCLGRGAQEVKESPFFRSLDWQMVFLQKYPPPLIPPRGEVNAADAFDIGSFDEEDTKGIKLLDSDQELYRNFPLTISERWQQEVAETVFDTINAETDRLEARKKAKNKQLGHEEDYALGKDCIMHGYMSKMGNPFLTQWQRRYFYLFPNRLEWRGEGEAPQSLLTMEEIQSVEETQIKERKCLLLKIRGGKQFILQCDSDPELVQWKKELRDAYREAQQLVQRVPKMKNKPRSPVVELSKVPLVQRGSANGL
Sequence of UniProt Q13882 (whole entry, looked up): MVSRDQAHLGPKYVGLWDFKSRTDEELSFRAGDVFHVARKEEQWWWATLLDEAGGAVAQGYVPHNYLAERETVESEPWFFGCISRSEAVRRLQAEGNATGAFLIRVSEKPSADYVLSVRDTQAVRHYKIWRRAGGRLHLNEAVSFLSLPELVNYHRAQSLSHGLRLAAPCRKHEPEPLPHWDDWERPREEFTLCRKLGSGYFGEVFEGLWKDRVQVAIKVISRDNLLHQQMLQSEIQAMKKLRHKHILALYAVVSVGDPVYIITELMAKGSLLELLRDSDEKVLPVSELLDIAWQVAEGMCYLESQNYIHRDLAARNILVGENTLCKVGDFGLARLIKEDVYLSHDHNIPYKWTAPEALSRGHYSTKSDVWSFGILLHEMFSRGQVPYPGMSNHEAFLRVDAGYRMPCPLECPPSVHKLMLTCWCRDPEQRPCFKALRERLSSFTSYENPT
Sequence of UniProt P78368 (whole entry, looked up): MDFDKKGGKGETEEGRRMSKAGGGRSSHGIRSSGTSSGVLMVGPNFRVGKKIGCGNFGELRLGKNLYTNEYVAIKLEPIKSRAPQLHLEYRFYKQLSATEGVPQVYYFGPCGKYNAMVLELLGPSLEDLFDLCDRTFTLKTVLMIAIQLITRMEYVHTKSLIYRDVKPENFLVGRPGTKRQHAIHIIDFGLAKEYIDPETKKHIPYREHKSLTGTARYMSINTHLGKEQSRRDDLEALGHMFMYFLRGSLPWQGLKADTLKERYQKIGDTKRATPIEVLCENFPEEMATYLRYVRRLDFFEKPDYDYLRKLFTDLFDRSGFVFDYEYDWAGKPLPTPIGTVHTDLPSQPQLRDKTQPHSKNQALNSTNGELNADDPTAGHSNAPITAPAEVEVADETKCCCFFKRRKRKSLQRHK
Sequence of UniProt P53667 (whole entry, looked up): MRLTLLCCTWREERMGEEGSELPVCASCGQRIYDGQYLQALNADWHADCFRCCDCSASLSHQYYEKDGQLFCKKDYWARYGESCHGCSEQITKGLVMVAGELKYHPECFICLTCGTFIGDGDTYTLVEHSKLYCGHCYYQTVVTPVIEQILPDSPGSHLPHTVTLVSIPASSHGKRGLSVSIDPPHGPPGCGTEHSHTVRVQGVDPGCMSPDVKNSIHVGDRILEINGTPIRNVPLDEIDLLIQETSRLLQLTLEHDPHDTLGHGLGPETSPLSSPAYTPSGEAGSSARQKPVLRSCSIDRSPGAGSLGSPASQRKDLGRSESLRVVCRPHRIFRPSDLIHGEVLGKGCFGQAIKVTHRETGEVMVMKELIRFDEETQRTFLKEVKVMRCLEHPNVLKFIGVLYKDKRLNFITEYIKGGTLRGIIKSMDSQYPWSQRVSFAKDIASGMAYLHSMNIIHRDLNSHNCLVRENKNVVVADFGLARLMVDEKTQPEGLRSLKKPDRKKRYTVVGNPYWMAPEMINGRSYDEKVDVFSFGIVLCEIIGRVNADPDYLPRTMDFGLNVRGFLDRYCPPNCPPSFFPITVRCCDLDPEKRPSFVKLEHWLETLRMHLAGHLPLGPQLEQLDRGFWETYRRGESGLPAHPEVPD
Sequence of UniProt P11802 (whole entry, looked up): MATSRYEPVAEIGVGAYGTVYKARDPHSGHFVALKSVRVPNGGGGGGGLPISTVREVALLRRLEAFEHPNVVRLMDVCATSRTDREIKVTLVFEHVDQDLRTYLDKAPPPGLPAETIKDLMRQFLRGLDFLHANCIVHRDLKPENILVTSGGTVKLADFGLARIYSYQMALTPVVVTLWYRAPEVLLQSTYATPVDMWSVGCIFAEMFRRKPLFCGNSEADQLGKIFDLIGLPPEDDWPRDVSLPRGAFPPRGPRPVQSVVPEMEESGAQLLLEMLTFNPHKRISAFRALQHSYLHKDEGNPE
Sequence of UniProt Q8TDX7 (whole entry, looked up): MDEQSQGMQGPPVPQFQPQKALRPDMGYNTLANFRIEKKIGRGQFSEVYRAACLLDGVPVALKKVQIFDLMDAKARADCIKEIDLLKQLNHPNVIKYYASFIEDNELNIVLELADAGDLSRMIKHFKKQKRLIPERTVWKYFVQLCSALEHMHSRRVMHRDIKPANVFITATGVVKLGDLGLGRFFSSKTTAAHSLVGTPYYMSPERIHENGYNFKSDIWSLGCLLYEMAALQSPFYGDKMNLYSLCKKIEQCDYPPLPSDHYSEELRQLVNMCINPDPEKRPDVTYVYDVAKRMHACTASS

Series 1
Structure (SMILES): CSc1cccnc1N1CCN(Cc2nc3ccccc3[nH]2)CC1
Method: competition with immobilised ligand
Tested at: 1 µM
target	assay	remaining binding
MATK (Homo sapiens, UniProt P42679)	cell-free assay	45%
PRKACB (Homo sapiens, UniProt P22694)	cell-free assay	100%
Tyrosine-protein kinase ABL1, non-phosphorylated (ABL1, Homo sapiens, UniProt P00519, F317I)	cell-free assay	100%
CDK9 (Homo sapiens, UniProt P50750)	cell-free assay	97%
CDK4 (Homo sapiens, UniProt P11802)	cell-free assay	84%
MAP3K7 (Homo sapiens, UniProt O43318)	cell-free assay	74%
PRKACA (Homo sapiens, UniProt P17612)	cell-free assay	92%
CSF1R (Homo sapiens, UniProt P07333)	cell-free assay	100%
FLT4 (Homo sapiens, UniProt P35916)	cell-free assay	100%
SRPK3 (Homo sapiens, UniProt Q9UPE1)	cell-free assay	100%
PRPF4B (Homo sapiens, UniProt Q13523)	cell-free assay	100%
STK32C (Homo sapiens, UniProt Q86UX6)	binding	71%
MERTK (Homo sapiens, UniProt Q12866)	cell-free assay	80%
GSK3A (Homo sapiens, UniProt P49840)	cell-free assay	100%
MAPK4 (Homo sapiens, UniProt P31152)	cell-free assay	100%
CSNK1G2 (Homo sapiens, UniProt P78368)	cell-free assay	99%
STK17B (Homo sapiens, UniProt O94768)	cell-free assay	100%
PTK6 (Homo sapiens, UniProt Q13882)	cell-free assay	88%
PNCK (Homo sapiens, UniProt Q6P2M8)	cell-free assay	100%
PAK5 (Homo sapiens, UniProt Q9P286)	cell-free assay	97%
TYRO3 (Homo sapiens, UniProt Q06418)	cell-free assay	100%
Tyrosine-protein kinase ABL1, non-phosphorylated (ABL1, Homo sapiens, UniProt P00519, T315I)	cell-free assay	99%
STK38L (Homo sapiens, UniProt Q9Y2H1)	binding	100%
EPHB6 (Homo sapiens, UniProt O15197)	cell-free assay	89%
GRK2 (Homo sapiens, UniProt P25098)	cell-free assay	93%

Series 2
SMILES: Cc1ccc(NC(=O)c2ccnc(C(F)(F)F)c2)cc1-c1cc(OCCO)nc(N2CCOCC2)c1
Effect on: binding
Tested at: 1 µM
target	assay	remaining binding [%]
STK25 (Homo sapiens, UniProt O00506)	competition with immobilised ligand	100
TAOK2 (Homo sapiens, UniProt Q9UL54)	competition with immobilised ligand	80
PIK3CA (Homo sapiens, UniProt P42336, E542K)	–	90
LIM domain kinase 1 (LIMK1, Homo sapiens, UniProt P53667)	competition with immobilised ligand	92
STK36 (Homo sapiens, UniProt Q9NRP7)	competition with immobilised ligand	90
EPHB3 (Homo sapiens, UniProt P54753)	competition with immobilised ligand	91
EGFR (Homo sapiens, UniProt P00533, del746-750)	–	86
NLK (Homo sapiens, UniProt Q9UBE8)	competition with immobilised ligand	100
NEK7 (Homo sapiens, UniProt Q8TDX7)	–	100

Series 3
Cell line: mouse MPNST tumor cells
Method: high-content nuclear imaging
Item: cell number
Tested at: 10 µM
Time: 12 h
Setting: mean of 2 replicates
Baseline: plate mean
Direction: higher = more cells
Structure (SMILES)	nuclei count [z-score]
CNc1nc(Nc2ccc(C(=O)N3CCOCC3)cc2OC)nc2[nH]cc(Cl)c12	1.11
Cc1ccc(O)c(NC(=O)CCc2ccccc2)c1	-2.15
O=C(Nc1ccc(CN2CCOCC2)cc1)c1ccc(-c2cccc(Cl)c2)o1	4.64
Cc1ccc(C(C)(O)c2nc3ccccc3s2)c(C)c1 (centres unmarked)	2.89
CCCNC(C)C(=O)Nc1c(C)csc1C(=O)OC (centres unmarked)	0.804
O=C(c1cc(C2CC2)on1)N(C1CCCCC1)C1CCCCC1	0.332
CC(C)C(=O)SCCCCC[C@H](NC(=O)OC(C)(C)C)C(=O)NC12CC3CC(CC(C3)C1)C2	-0.238
CC(C)[C@H](O)C(=O)N[C@@H](C)C(=O)N[C@@H]1C(=O)N(C)CCc2ccccc21	-0.059

Series 4
Host: human
Sample: microsomes or S9
Tested at: 2 µM
Time: 0.5 h
Structure (SMILES)	remaining compound
Clc1ccc2ccn(Cc3ccccc3Br)c2n1	9.21%
O=C(C1CCOCC1)N1CCC(Oc2nccnc2N2CCOCC2)C1 (centres unmarked)	7.2%
Cc1c(C(=O)O)nnn1-c1cccc2cnccc12	> 100%
CN(C(=O)CN1C(=O)COc2cc(Cl)c(Cl)cc21)C(CN1CCCC1)c1ccc(Br)cc1 (centres unmarked)	> 100%
Cc1c(NC(=O)c2ccc(Cl)cc2)c(=O)n(-c2ccccc2)n1C	83.5%
C[C@@H](C(=O)NOC(C)(C)C)N1C(=O)Nc2cc(Cl)cc(Cl)c2S1(=O)=O	> 99%
CC(C)(C)C(O)CN1C2=NCCN2c2ccccc21 (centres unmarked)	96%
COc1cccc(-c2nc3cc(Cl)ccc3c3ccnn23)c1Cl	49.9%
CCCc1cc(=O)[nH]c(-n2nc(C)cc2NC(=O)COc2ccccc2C)n1	26.2%
CN1Cc2cc(NCc3c(Cl)cnn3C)ccc2NC1=O	75.4%
C[C@@H]1[C@@H](CO)[C@](O)(C(F)(F)F)c2cc([N+](=O)[O-])cn21	> 99.9%

Excerpt of the above (series 3):
Structure (SMILES)	nuclei count [z-score]
CCCNC(C)C(=O)Nc1c(C)csc1C(=O)OC (centres unmarked)	0.804
CC(C)C(=O)SCCCCC[C@H](NC(=O)OC(C)(C)C)C(=O)NC12CC3CC(CC(C3)C1)C2	-0.238
CNc1nc(Nc2ccc(C(=O)N3CCOCC3)cc2OC)nc2[nH]cc(Cl)c12	1.11
CC(C)[C@H](O)C(=O)N[C@@H](C)C(=O)N[C@@H]1C(=O)N(C)CCc2ccccc21	-0.059
Cc1ccc(C(C)(O)c2nc3ccccc3s2)c(C)c1 (centres unmarked)	2.89
